Published values pooled from the literature.
Parts stem from different laboratories: compare values within a part only.

Block 1
Target: TAR DNA-binding protein 43, full length, His tag (TARDBP, Homo sapiens, UniProt Q13148, residues 1-414)
Method: RNA Bind-n-Seq
Form: RNA
Sample: in vitro
Tested at: 20 nM
Notes: 6-mer, flanks averaged, single round
Added: 150 mM LiCl
Baseline: input library
Direction: higher = stronger binding
| Oligonucleotide | 6-mer enrichment (R) |
| --- | --- |
| AAGCUA | 0.827 |
| UCUAGG | 0.87 |
| AGGUUU | 1.02 |
| CUUGAA | 0.963 |

Block 2
Target: Sal-like protein 4, full length isoform B (SALL4, Homo sapiens, UniProt Q9UJQ4-2, residues 1-616)
Method: universal PBM
Form: double-stranded DNA, one strand shown
Sample: in vitro
Tested at: not given
Notes: 8-mer, flanks averaged, mean of replicates
Direction: higher = stronger binding
Construct (chain): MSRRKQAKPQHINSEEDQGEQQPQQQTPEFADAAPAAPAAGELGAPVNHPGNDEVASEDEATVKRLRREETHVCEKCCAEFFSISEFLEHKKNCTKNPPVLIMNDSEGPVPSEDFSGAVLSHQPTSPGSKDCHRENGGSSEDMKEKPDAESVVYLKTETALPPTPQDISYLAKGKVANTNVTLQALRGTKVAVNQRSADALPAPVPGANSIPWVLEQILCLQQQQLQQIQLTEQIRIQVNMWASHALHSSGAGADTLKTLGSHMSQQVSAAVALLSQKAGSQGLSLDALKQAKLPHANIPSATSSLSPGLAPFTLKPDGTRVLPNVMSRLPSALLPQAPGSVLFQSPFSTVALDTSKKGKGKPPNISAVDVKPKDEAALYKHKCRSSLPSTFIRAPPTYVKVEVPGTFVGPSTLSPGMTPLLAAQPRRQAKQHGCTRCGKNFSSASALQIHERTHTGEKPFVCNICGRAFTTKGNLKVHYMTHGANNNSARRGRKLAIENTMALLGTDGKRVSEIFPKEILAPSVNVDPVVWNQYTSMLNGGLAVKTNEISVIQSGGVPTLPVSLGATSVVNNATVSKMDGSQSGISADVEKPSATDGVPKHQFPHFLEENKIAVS
| Oligonucleotide | E-score |
| --- | --- |
| GACCTGAA | -0.0979 |
| ATGAGTCG | 0.0514 |
| CAGCTCGA | -0.264 |
| ATACTCTC | 0.232 |
| CATTCTGG | -0.0611 |
| GCTGCCAA | -0.219 |

Block 3
Target: Interferon regulatory factor 7, full length, phosphomimetic (IRF7, Homo sapiens, UniProt Q92985, residues 1-503, S471D/S472D/S475D/S476D/S477D/S483D/S484D/S487D)
Method: protein-binding microarray
Form: double-stranded DNA, one strand shown
Sample: in vitro
Tested at: 2200 nM top
Notes: 60-bp whole probe
Added: salmon DNA 0.4 mg/ml
Baseline: random background probes
Direction: higher = stronger binding
All sequences stand within: GCCTAGCAC … GTCTTGATTCGCTTGACGCTGCTG
Target sequence (chain): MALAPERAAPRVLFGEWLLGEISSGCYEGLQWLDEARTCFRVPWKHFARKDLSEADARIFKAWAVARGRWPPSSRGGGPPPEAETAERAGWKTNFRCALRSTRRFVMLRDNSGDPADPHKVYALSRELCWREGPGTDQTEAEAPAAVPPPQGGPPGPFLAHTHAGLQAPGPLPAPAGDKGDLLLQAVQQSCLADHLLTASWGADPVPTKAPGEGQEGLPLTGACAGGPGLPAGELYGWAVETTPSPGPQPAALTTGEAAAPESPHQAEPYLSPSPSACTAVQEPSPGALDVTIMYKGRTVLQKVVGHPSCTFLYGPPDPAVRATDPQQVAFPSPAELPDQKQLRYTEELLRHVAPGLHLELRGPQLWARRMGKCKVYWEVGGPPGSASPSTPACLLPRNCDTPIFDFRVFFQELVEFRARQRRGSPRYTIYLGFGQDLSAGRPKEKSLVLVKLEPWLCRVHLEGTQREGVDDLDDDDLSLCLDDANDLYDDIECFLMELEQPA
| Oligonucleotide | fitted relative affinity |
| --- | --- |
| AACGGTATCCTTTTCCTGACGTGCTAG | 1.51 z-score |
| TCATGTGTGTGTTTGTGACTGTGCTAG | 1.06 z-score |
| GACGGTTTCGGTTTCCGGACGTGCTAG | 14.7 z-score |
| GACGATTTCAGTATCGAGATGTGCTAG | 0.881 z-score |
| GACGGTTTCCACTTTCGGGACGTGCTA | 7.7 z-score |
| TTAGGTCACCTTTTCCTTTAGTGCTAG | 1.49 z-score |
| TCACCTATCTCCTCACAGACTGTGCTA | 2.02 z-score |

Mixed results
| Molecule | target | assay | system | setting | how to read | endpoint | result |
| --- | --- | --- | --- | --- | --- | --- | --- |
| PhoQ, residues 284 288 289 292 302 303 DDMDFR | PhoP, residues 12 14 15 18 19 NHFIF (Escherichia coli, UniProt P23836) | Sort-seq, item: YFP reporter | E. coli | PhoQ-PhoP variant library, added: 10 µM Mg2+ | baseline: high Mg2+ state, higher = stronger signaling | fold induction | 0.974 |

Excerpt of the above (block 3):
| Oligonucleotide | fitted relative affinity |
| --- | --- |
| TCATGTGTGTGTTTGTGACTGTGCTAG | 1.06 z-score |
